Measurements pooled from the literature.
Every numbered part comes from another study and shows a few of its results, in no order. Values joined by “and” are separate records of one study, mostly repeats; a detail may differ.
Sequence of UniProt P32298 (whole entry, looked up): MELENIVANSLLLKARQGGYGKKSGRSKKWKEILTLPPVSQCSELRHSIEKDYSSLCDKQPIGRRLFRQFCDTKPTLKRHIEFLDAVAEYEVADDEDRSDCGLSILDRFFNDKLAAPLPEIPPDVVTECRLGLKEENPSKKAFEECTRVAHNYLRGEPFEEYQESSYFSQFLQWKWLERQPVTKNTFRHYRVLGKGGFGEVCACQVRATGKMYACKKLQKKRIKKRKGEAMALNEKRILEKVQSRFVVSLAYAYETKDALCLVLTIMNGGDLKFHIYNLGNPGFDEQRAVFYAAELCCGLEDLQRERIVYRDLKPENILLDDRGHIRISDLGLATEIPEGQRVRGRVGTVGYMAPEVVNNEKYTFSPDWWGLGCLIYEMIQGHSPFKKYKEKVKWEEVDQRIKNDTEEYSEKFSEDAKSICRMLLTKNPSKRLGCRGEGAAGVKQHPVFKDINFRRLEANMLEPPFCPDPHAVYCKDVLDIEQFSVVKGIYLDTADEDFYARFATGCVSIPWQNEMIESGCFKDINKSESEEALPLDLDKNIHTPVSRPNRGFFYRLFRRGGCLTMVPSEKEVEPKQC
Sequence of UniProt Q13464 (whole entry, looked up): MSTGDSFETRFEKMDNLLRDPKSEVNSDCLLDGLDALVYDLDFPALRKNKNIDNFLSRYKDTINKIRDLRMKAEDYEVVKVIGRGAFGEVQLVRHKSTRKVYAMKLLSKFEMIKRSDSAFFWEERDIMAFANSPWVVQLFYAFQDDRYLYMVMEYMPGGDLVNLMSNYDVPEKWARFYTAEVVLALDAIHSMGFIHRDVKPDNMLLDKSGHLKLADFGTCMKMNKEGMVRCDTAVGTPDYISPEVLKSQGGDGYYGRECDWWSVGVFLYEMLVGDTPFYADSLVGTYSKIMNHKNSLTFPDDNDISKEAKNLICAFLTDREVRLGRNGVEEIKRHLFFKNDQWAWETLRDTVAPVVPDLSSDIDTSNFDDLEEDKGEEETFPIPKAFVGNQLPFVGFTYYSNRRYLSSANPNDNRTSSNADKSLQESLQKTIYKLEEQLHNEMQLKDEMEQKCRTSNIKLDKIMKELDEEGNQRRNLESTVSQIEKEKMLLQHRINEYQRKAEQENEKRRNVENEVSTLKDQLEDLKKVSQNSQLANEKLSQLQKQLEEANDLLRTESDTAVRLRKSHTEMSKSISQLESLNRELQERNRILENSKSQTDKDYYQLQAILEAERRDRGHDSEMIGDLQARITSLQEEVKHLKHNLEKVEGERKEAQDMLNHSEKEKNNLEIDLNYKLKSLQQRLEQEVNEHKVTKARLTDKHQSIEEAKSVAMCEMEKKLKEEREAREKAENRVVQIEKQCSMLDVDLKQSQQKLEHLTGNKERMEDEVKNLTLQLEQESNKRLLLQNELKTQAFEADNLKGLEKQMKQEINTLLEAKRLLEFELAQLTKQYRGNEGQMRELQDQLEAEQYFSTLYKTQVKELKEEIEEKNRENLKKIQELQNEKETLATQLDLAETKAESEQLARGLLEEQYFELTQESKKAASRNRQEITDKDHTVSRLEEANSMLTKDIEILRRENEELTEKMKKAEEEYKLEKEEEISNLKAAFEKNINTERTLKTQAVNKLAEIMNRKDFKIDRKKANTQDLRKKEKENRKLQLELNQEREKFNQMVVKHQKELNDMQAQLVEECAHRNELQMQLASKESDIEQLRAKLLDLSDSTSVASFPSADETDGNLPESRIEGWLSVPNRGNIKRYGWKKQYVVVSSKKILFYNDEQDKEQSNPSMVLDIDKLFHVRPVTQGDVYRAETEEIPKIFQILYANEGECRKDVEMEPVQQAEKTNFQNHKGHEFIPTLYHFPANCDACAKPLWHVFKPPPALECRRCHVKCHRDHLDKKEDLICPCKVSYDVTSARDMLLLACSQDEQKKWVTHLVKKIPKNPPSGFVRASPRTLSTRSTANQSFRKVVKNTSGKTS
Sequence of UniProt P08581 (whole entry, looked up): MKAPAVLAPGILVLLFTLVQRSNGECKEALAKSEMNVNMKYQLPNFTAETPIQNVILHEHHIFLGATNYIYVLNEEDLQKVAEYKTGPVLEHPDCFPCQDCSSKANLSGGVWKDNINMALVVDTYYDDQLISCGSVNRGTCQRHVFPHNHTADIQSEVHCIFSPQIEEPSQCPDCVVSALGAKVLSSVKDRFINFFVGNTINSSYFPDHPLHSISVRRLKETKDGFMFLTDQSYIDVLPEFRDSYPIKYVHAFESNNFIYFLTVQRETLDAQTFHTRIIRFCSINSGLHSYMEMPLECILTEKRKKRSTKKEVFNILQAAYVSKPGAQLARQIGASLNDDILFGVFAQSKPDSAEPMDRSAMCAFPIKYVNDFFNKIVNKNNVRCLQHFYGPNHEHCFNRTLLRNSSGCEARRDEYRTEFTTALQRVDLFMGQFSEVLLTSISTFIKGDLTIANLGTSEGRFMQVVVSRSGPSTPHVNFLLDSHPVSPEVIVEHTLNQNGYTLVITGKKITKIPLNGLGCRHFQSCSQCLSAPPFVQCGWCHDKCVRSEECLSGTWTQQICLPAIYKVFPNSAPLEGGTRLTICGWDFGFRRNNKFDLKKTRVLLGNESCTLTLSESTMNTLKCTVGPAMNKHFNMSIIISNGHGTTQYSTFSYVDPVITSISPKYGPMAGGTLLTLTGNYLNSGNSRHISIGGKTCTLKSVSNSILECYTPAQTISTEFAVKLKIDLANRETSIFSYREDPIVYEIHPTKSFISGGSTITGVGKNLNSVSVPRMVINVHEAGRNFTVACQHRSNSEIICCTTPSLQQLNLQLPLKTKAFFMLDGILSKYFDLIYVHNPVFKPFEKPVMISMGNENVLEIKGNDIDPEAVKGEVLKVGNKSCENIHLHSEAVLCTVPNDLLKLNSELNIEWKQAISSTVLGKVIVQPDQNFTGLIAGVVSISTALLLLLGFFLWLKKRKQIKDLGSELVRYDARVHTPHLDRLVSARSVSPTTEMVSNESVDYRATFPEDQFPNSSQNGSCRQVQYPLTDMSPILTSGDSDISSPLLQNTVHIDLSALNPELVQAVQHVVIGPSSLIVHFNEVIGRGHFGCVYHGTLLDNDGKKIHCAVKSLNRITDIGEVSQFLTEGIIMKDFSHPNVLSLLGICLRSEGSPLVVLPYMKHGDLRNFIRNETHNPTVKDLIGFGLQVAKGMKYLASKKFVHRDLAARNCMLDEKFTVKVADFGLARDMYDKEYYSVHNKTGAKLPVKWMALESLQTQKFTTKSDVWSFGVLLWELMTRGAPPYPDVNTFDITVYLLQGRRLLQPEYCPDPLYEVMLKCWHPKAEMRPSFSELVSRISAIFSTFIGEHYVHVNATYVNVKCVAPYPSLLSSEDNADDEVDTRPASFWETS
Sequence of UniProt Q9HAZ1 (whole entry, looked up): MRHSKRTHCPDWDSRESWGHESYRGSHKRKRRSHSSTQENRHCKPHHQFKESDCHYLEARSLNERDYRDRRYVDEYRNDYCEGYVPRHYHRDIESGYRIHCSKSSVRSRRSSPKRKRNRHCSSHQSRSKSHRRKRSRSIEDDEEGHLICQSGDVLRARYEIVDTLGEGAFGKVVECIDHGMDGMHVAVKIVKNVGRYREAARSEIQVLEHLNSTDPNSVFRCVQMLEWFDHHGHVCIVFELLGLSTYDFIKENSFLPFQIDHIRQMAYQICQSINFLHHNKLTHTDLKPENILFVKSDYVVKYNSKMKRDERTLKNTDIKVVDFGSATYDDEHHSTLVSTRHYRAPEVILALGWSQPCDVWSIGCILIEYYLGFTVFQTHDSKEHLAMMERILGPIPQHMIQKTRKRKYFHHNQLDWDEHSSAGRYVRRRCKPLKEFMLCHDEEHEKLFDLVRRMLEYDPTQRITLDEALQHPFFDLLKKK
Sequence of UniProt Q16832 (whole entry, looked up): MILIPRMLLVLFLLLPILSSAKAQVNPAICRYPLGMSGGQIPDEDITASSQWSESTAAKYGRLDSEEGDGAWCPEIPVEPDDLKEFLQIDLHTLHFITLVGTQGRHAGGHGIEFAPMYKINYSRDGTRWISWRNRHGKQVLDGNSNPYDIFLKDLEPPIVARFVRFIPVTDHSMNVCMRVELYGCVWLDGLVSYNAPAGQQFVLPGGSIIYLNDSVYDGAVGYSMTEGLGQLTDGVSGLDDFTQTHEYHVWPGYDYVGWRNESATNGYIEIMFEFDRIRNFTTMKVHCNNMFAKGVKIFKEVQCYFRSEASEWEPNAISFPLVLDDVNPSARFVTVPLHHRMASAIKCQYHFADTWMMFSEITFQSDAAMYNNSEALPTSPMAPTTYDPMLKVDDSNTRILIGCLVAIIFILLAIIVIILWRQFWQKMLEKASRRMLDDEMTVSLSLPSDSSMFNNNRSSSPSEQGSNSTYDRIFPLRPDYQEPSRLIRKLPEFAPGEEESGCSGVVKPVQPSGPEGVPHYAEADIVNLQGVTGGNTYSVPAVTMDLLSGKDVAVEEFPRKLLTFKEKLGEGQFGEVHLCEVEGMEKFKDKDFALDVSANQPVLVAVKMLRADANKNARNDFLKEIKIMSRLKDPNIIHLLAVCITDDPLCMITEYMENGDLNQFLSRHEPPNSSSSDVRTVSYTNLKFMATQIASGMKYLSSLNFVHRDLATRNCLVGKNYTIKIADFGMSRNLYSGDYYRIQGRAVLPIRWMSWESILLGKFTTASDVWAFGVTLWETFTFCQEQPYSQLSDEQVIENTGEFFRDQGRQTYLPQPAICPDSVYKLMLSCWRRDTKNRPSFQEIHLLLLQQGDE
Sequence of UniProt Q15759 (whole entry, looked up): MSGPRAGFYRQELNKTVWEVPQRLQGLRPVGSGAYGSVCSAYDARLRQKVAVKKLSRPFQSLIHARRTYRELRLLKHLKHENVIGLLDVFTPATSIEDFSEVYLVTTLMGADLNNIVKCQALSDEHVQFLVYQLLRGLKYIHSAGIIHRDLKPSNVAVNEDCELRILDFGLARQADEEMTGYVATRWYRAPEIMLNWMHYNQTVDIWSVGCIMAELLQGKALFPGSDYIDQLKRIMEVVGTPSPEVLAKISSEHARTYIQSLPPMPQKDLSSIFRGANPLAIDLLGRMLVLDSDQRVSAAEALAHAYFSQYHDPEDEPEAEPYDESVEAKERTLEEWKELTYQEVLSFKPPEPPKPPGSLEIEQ

Series 1
SMILES: Cn1nc(C(=O)NCc2ccc(C(=O)O)cc2)cc1-c1ccc2[nH]ccc2c1
Effect on: cell-free assay
Technique: competition with immobilised ligand
Tested at: 0.1 µM
Quantity: remaining binding
Ribosomal protein S6 kinase alpha-3, C-terminal kinase domain (RPS6KA3, Homo sapiens, UniProt P51812): 70%
CSNK1A1L (Homo sapiens, UniProt Q8N752): 94%
GRK4 (Homo sapiens, UniProt P32298): 96%
CSNK1A1 (Homo sapiens, UniProt P48729): 81%
Tyrosine-protein kinase ABL1, non-phosphorylated (ABL1, Homo sapiens, UniProt P00519, Q252H): 71%

Series 2
Organism: Sarcocystis neurona
Effect on: parasite growth
Tested at: 10 µM
Time: 96 h
Setting: second screen
Relative to: untreated
Quantity: log2 fold change
COc1ccc(Cl)cc1C(=O)NCCc1ccc(S(=O)(=O)NC(=O)NC2CCCCC2)cc1: -0.0121
COc1ccc(/C=C/C(=O)Nc2ccccc2C(=O)O)cc1OC: -0.56
NS(=O)(=O)c1cc2c(cc1C(F)(F)F)NCNS2(=O)=O: 0.36
CO/N=C(\C(=O)N[C@@H]1C(=O)N2C(C(=O)O)=C(COC(C)=O)CS[C@H]12)c1csc(N)n1: 0.16
COc1ccc(C2CNC(=O)C2)cc1OC1CCCC1 (stereo not shown): 0.31

Series 3
SMILES: O=C1NC(=O)C(c2cn(CCCn3ccnc3)c3ccccc23)=C1Nc1ccccc1
Effect on: enzyme activity
Action: inhibitor
Tested at: 0.5 µM
Relative to: control
Quantity: remaining activity
MAPK1 (Homo sapiens, UniProt P28482): 94.8%
GRK4 (Homo sapiens, UniProt P32298): 91.6%
CLK4 (Homo sapiens, UniProt Q9HAZ1): 38.9%
CAMK4 (Homo sapiens, UniProt Q16566): 103%
PLK3 (Homo sapiens, UniProt Q9H4B4): 99.8%
MAPK11 (Homo sapiens, UniProt Q15759): 111%
Cyclin-dependent kinase 9, with cyclin K (CDK9, Homo sapiens, UniProt P50750): 64.6%
KDR (Homo sapiens, UniProt P35968): 90.2%
CDC42BPB (Homo sapiens, UniProt Q9Y5S2): 105%
CLK3 (Homo sapiens, UniProt P49761): 93.9%
DDR2 (Homo sapiens, UniProt Q16832): 95.6%
ROCK1 (Homo sapiens, UniProt Q13464): 99.2%
MET (Homo sapiens, UniProt P08581): 100%
MINK1 (Homo sapiens, UniProt Q8N4C8): 90.1%

Single results of other studies
Effect on: binding
Action: competitor
Technique: NanoBRET
Cells: HEK293
CC(=O)N1CCN(c2nc(OC[C@@H]3CCCN3C)nc3c2CCN(c2cccc4cccc(Cl)c24)C3)C[C@@H]1CC#N  normalized BRET (GTPase KRas (KRAS, Homo sapiens, UniProt P01116, G13D); 33.3 µM): 5.17% and 6.36% and 8.9%
CCC(=O)N1CCN(c2nc(OC[C@@H]3CCCN3C)nc3c2CCN(c2cccc4cccc(Cl)c24)C3)C[C@@H]1CC#N  normalized BRET (GTPase KRas (KRAS, Homo sapiens, UniProt P01116, Q61H); 137 nM): 83.7% and 98.8% and 88.3%
Cn1cnc(Cn2ccc3ccc(CNCc4[nH]c5ccccc5c4[C@H]4NC(=O)c5ccc(O)cc54)cc32)c1  normalized BRET (GTPase KRas (KRAS, Homo sapiens, UniProt P01116, G12C); 27.4 nM, 4 h; relative to: vehicle and 20 µM BI compound): 98% and 102% and 99.5% and 95.6%
C=C(F)C(=O)N1CCN(c2nc(OC[C@@H]3CCCN3C)nc3c2CCN(c2cccc4cccc(Cl)c24)C3)C[C@@H]1CC#N  normalized BRET (GTPase HRas (HRAS, Homo sapiens, UniProt P01112); 82.2 nM): 98.7% and 93.4%
